Experimental data of several laboratories.
A part holds a random share of what one study measured. Substitutions count along the parent as printed.
Chain of UniProt P35368 (whole entry, looked up): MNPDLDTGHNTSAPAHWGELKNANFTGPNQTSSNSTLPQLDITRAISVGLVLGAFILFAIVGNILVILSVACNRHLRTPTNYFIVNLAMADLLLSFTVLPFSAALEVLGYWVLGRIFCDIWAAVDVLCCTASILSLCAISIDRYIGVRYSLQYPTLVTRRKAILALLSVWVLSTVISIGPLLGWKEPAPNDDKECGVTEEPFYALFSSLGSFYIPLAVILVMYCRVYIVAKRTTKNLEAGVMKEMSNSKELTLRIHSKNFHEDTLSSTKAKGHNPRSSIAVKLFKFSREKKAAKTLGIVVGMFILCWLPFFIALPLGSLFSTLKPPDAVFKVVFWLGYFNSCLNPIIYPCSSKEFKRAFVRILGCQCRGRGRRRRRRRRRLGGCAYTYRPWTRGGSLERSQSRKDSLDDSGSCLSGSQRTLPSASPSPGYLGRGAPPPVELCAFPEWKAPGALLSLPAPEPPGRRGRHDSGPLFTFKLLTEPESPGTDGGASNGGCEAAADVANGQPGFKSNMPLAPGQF

Study 1 — method: protein binding microarray; molecule type: double-stranded DNA, one strand shown; sample: in vitro; concentration: not given; baseline: not given; reading: higher = stronger binding
Target: Histone acetyltransferase KAT6A, winged helix 2, GST fusion (KAT6A, Homo sapiens, UniProt Q92794, residues 85-181)
Setting: 8-mer, flanks averaged, mean of 2 arrays, mostly near background
Construct (chain): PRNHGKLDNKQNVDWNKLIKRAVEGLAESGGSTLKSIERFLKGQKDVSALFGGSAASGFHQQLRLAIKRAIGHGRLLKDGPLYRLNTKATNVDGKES
The E-score of `TCCAGCCA` is reported as -0.0893.
`GACTGACC` gave an E-score of -0.0994.
For `AGGACAGG`, the E-score was 0.0829.
`AGACATTC` gave an E-score of -0.0982.
For `GACACAAC`, the E-score was -0.056.
The E-score of `CTTGAAAG` is reported as -0.0513.
The E-score of `TGTTAACA` is reported as 0.00582.
`ACACTACT` has an E-score of 0.0309.

Study 2 — target: CCND2, cyclin fold, Cln2 fusion (human); method: yeast growth competition, sequencing; sample: yeast; setting: weak parent motif; baseline: not given; reading: higher = stronger binding
Parent: CDC6 docking peptide (human); TLKGRRLVFDNQL
`TLKGRRLVFDNQY [L13Y]` — result for “normalised enrichment score”: 0.35.
For `TLKGRRLVFDNRL [Q12R]`, “normalised enrichment score” read -0.0518.
`TLKGRRLVFDNQQ [L13Q]`: “normalised enrichment score” 0.349.
For `TLKGRKLVFDNQL [R6K]`, “normalised enrichment score” read 0.0898.
Under “normalised enrichment score”, `TEKGRRLVFDNQL [L2E]` is recorded as -0.0524.
`FLKGRRLVFDNQL [T1F]` — result for “normalised enrichment score”: -0.354.
For `GLKGRRLVFDNQL [T1G]`, “normalised enrichment score” read 0.319.
Under “normalised enrichment score”, `TLKGRHLVFDNQL [R6H]` is recorded as 0.0598.

Study 3 — method: DHFR PCA, deep sequencing; sample: yeast; added: (+)-ABA 0.11 µM; baseline: wild-type fitted maximum; reading: higher = stronger binding
Target: ABI1, truncated, D143A, DHFR fusion (Arabidopsis thaliana)
Setting: methotrexate growth selection, single substitutions
Parent: PYL1, truncated, DHFR fusion (Arabidopsis thaliana); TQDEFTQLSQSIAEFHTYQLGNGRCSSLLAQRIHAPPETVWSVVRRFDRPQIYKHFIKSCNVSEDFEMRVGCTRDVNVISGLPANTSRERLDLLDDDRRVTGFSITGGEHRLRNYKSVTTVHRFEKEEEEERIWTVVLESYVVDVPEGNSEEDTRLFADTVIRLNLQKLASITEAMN; partner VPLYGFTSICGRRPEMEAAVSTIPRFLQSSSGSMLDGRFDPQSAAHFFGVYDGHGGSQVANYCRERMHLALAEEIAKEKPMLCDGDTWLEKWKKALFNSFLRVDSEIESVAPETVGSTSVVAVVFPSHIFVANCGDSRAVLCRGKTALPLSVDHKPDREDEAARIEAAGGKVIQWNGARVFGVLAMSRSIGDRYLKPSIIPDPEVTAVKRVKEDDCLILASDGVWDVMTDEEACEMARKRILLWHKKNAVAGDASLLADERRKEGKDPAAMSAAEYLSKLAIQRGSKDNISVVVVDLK
Under “relative binding score”, `V78A` is recorded as 10%.
For `S63E`, “relative binding score” read 28%.
`S87H` — result for “relative binding score”: 50%.
Under “relative binding score”, `K126P` is recorded as 54.5%.
Under “relative binding score”, `F5W` is recorded as 36.7%.
Under “relative binding score”, `V121M` is recorded as 6.22%.
`D65P` — result for “relative binding score”: 54.2%.
Under “relative binding score”, `D75M` is recorded as 35.5%.

Single results of other studies
The inhibition of `CNC(=O)Nc1ccc2c(c1)CC[C@]21OC(=O)N(CC(=O)N(Cc2ccc(F)cc2)[C@@H](C)C(F)(F)F)C1=O` is reported as 1.93% (Alpha-1B adrenergic receptor (ADRA1B, Homo sapiens, UniProt P35368); ligand displacement; 10 µM).

For quick reference, copied from above (study 1):
For `GACACAAC`, the E-score was -0.056.
The E-score of `CTTGAAAG` is reported as -0.0513.
The E-score of `TGTTAACA` is reported as 0.00582.
